Assay results gathered from unrelated publications.
Numbered parts are unrelated; each lists some results of a single study. Changes are numbered by the printed parent chain.

Series 1
Target: RNA binding protein fox-1 homolog 2, RRM domain, GST-SBP tag (RBFOX2, Homo sapiens, UniProt O43251-10, residues 100-194)
Technique: RNA Bind-n-Seq
Form: RNA
Medium: in vitro
Concentration: 365 nM
Notes: natural RNA segment, single round, ends assumed
Baseline: no-protein control
Direction: higher = stronger binding
Endpoint: RBNS enrichment (R)
Constant ends, left off below: GGGAGUUCUACAGUCCGACGAUC … UGGAAUUCUCGGGUGCCAA
Target sequence (chain): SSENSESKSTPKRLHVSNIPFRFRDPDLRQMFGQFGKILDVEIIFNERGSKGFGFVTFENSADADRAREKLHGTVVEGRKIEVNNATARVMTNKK
Strand = AUUAGUUUAAAGGUAAAUAAAGUCAGCUGAAUCUACAUGUCUCUUGUUUUAUUUCUCUCUAAACUUGAAAACAGUAAAUCUGCAGAUACUGUGAGGCACAAAUUAUACUG; result = 0.521
Strand = UGGUAAAUUUAACUGAGGAAUUAAAUCCUUGUUAAUUUUGGUGUAAAGAUUUGUAUCCUGGCCUGUUUAUUCAGGUGGGAGAUGUUCUGUAUAAUUUUGAGGUAUAGCUU; result = 0.454
Strand = ACACUGAAAAAUCUAAGUGAUAUAAAUCAGAUUCUUCUCUCUCAAUUUUAUCCCUCACCUGUAGCAGCCAGUCCCGUUUCAUUUAGUCAUGUGACCACUCUGUCUUGUGU; result = 0.283
Strand = CGGAUGGCAGAUACUGGCCUUUGAAACUCUGUUGAUUCAUCUCUUCUAAUCGGUCCCCAAGGAGAAAGAACAUAAACAAAGAGUGAGGUCUUCCCUCCCACUGAACACUA; result = 0.496
Strand = UAGUGCCGUUGGUUUCACAUGAUUGCACUUUUGUGGGUCACAAGUGAUACAUACGUGUAUUACUCGAUCACUGGAUGUGGAAGUACCCAUUCAUCACAUCUGCCUCAUAG; result = 0.287
Strand = AUUUUGCUUUUGUUUGCUUUUUAUUUUUGUGUAAAAUCUAAAUUCCAGGAGCUAUGGGGUUCAUCCAGGCAUGAAGGCUAAUCCACUCUGAGUAAAGUGUCAGUUGCACA; result = 5.34
Strand = AUAUCUAUGGUAUAUUAAAAGGAGCAGUCAUCAUAUACUACUGCAUUUCCACUGAAGAGCCAAAAGGCAUUUAAUAUAUAUGUUCAUGAAACAUACCUUUUUCCUCUUUA; result = 0.515
Strand = ACCUUUUGAUUAGCUGUUGAGGAUUACCCACUGUCUUAGGAAGACCUAUUUUAACCUUACGUGUUCAAUGUGGUGAAUGGUUUGGGCCUUCACAAAUUAGGGGGGGGGCG; result = 0.824
Strand = GUGAUACCAUCCCAGUGCCAUGAGCCCACACUGCCCGCCCUCAGGCUCUCAGGUGAACGUGGCCGUCAGCGGGGAAACGUGUGUGUCAGUUGGACCAUGUGGGACCCUGA; result = 0.379
Strand = UGCAUGGAAUAUAUCUGCUGUCAUCUUAAUCUUAGUUUGGAUCAACCUCAUUUAUUUAUCUUAAAAUUAACCAGCUUUCUCAGUUCCAUCCAAAGAAGAUACAGUAUGAA; result = 1.93
Strand = AUGGAAGAAAAUGGAAUUACUCCAAAAAGACAAGUGCUCAAGCAGCAAAAUCCUUACUUCCAGCAAAAUCCAAACUGCUGUCUCUUAAAUCUCUUAAACUCUCUUCUUCC; result = 0.45
Strand = GCAUGGUGGUGCAUACCUAUAGUCCUGGCUAUUUGGGAGGCUGAGGCAGGAGGAUUGCUUUAGCCCUGGAGGUCGAGGCUGCAGUAAGCCAUGAUUGCGCCACUGCACUC; result = 0.937

Series 2
Target: CCNE1, cyclin fold, Cln2 fusion (human)
Technique: yeast growth competition, sequencing
Medium: yeast
Notes: weak parent motif
Baseline: not given
Direction: higher = stronger binding
Endpoint: normalised enrichment score
Starting sequence: DBF4 docking peptide (human); DDIVSKLVFDFVE
Variant = DDIVSKLVFDFAE [V12A]; result = 0.455
Variant = DDIVSALVFDFVE [K6A]; result = 0.43
Variant = DDIVAKLVFDFVE [S5A]; result = 0.196
Variant = DDIVSKLVFDAVE [F11A]; result = 0.592
Variant = DDIVSKAVFDFVE [L7A]; result = 0.0234
Variant = DDIVSKLVFDFVA [E13A]; result = 0.507
Variant = DDIVSKLAFDFVE [V8A]; result = -0.0856

Series 3
Target: ABI1, truncated, D143A, DHFR fusion (Arabidopsis thaliana)
Technique: DHFR PCA, deep sequencing
Medium: yeast
Notes: methotrexate growth selection, single substitutions
Added: (+)-ABA 4.8 µM
Baseline: wild-type fitted maximum
Direction: higher = stronger binding
Endpoint: relative binding score
Starting sequence: PYL1, truncated, DHFR fusion (Arabidopsis thaliana); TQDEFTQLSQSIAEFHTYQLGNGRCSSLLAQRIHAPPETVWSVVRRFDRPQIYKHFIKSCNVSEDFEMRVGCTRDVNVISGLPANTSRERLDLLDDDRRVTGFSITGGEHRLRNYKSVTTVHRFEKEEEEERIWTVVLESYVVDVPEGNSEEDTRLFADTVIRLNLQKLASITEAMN; partner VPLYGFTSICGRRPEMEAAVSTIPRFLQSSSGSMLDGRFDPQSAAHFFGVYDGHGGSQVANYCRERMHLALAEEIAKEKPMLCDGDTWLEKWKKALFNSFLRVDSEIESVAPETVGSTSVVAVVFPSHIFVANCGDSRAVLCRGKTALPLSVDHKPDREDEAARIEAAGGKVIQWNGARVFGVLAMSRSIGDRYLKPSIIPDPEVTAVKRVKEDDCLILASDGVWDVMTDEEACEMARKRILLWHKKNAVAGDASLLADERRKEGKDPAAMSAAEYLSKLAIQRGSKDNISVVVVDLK
Variant = A13H; result = 62.1%
Variant = Y141E; result = 3.02%
Variant = K168W; result = 65.2%
Variant = Q2P; result = 74.5%
Variant = T101I; result = 81.8%
Variant = V40D; result = -15.1%
Variant = G107M; result = 1.66%
Variant = V43Q; result = -1.71%
Variant = E38A; result = 51.9%
Variant = R90A; result = 9.62%
Variant = S117A; result = 31.6%

Single results of other studies
Substance = PhoQ, residues 284 288 289 292 302 303 SSTLSG; target = PhoP, residues 12 14 15 18 19 MHTVL (Escherichia coli, UniProt P23836); test = Sort-seq, measured: YFP reporter; system = E. coli; conditions = PhoQ-PhoP variant library, added: 10 µM Mg2+; how to read = baseline: high Mg2+ state, higher = stronger signaling; endpoint = fold induction; result = 5.43

Some of these lines once more (series 3):
Variant = E38A; result = 51.9%
Variant = R90A; result = 9.62%
Variant = S117A; result = 31.6%
